Published values from different studies.
Lines come from different studies, so protocols differ. ± gives the spread as reported.

CSCC[C@H](NC(=O)[C@H](CC(C)C)NC(=O)[C@H](Cc1c[nH]cn1)NC(=O)CNC(=O)[C@@H](NC(=O)[C@H](C)NC(=O)[C@H](Cc1c[nH]c2ccccc12)NC(=O)[C@H](CCC(N)=O)NC(=O)[C@H](CC(N)=O)NC(=O)CNC(=O)[C@H](Cc1ccc(O)cc1)NC(=O)[C@H](CCCNC(=N)N)NC(=O)[C@H](CCC(N)=O)NC(=O)[C@@H]1CCCN1C(=O)CN1CCN(CC(=O)O)CCN(CC(=O)O)CCN(CC(=O)O)CC1)C(C)C)C(N)=O [indium-111 labelled] — tissue uptake (male Swiss nu/nu mice, PC-3 tumour, kidney; intravenous, 10 pmol, 24 h): 2.8 ± 0.9 %ID/g
N=C(N)NCCC[C@@H]1NC(=O)[C@H](CCCCNC(=O)CCOCCOCCOCCOCCNC(=O)CC[C@H](NC(=O)CCOCCOCCOCCOCCNC(=O)c2ccc(NN)nc2)C(=O)NCCOCCOCCOCCOCCC(=O)NCCCC[C@@H]2NC(=O)[C@@H](Cc3ccccc3)NC(=O)[C@H](CC(=O)O)NC(=O)CNC(=O)[C@H](CCCNC(=N)N)NC2=O)NC(=O)[C@@H](Cc2ccccc2)NC(=O)[C@H](CC(=O)O)NC(=O)CNC1=O [technetium-99m labelled] — tissue uptake (female athymic nude mice, U-87 MG glioma xenograft, intestine; intravenous, 2.5 µCi, 60 min): 5.25 ± 1.92 %ID/g
N=C(N)NCCC[C@@H]1NC(=O)[C@H](CCCCNC(=O)CCOCCOCCOCCOCCNC(=O)CC[C@H](NC(=O)CCOCCOCCOCCOCCNC(=O)CC[C@H](NC(=O)CN2CCN(CC(=O)O)CCN(CC(=O)O)CCN(CC(=O)O)CC2)C(=O)NCCOCCOCCOCCOCCC(=O)N[C@@H](CCC(=O)NCCOCCOCCOCCOCCC(=O)NCCCC[C@@H]2NC(=O)[C@@H](Cc3ccccc3)NC(=O)[C@H](CC(=O)O)NC(=O)CNC(=O)[C@H](CCCNC(=N)N)NC2=O)C(=O)NCCOCCOCCOCCOCCC(=O)NCCCC[C@@H]2NC(=O)[C@@H](Cc3ccccc3)NC(=O)[C@H](CC(=O)O)NC(=O)CNC(=O)[C@H](CCCNC(=N)N)NC2=O)C(=O)NCCOCCOCCOCCOCCC(=O)NCCCC[C@@H]2NC(=O)[C@@H](Cc3ccccc3)NC(=O)[C@H](CC(=O)O)NC(=O)CNC(=O)[C@H](CCCNC(=N)N)NC2=O)NC(=O)[C@@H](Cc2ccccc2)NC(=O)[C@H](CC(=O)O)NC(=O)CNC1=O [indium-111 labelled] — tissue uptake (athymic nude mice, female, U-87 MG glioma xenograft, spleen; intravenous, 3 µCi, 4 h): 2.07 ± 0.37 %ID/g
N=C(N)NCCC[C@@H]1NC(=O)[C@H](CCCCNC(=O)CC[C@H](NC(=O)[C@H](CCCCNC(=O)c2ccc(NN)nc2)NC(=O)c2ccc(NN)nc2)C(=O)NCCCC[C@@H]2NC(=O)[C@@H](Cc3ccccc3)NC(=O)[C@H](CC(=O)O)NC(=O)CNC(=O)[C@H](CCCNC(=N)N)NC2=O)NC(=O)[C@@H](Cc2ccccc2)NC(=O)[C@H](CC(=O)O)NC(=O)CNC1=O [technetium-99m labelled] — tissue uptake (female athymic nude mice, blood; intravenous, 0.1 MBq, 1 h, U-87 MG glioma xenograft): 0.81 ± 0.04 %ID/g
N=C(N)NCCC[C@@H]1NC(=O)[C@H](CC(=O)NC23CNCCNCC(N)(CNCCNC2)CNCCNC3)NC(=O)[C@@H](Cc2ccccc2)NC(=O)[C@H](CC(=O)O)NC(=O)CNC1=O [copper-64 labelled] — tissue uptake (male nude tumour-bearing mice, kidney; iv, 10 µCi, 1 h): 5.58 ± 1.62 %ID/g
CC(C)[C@H](NC(=O)[C@H](C)N)C(=O)N[C@@H](CCCNC(=N)N)C(=O)N[C@H](C(=O)N[C@@H](CO)C(=O)N[C@@H](C)C(=O)N[C@@H](CC(=O)O)C(=O)NCCOCCOCCOCCOCCC(=O)N[C@@H](CCCCNC(=O)CN1CCN(CC(=O)O)CCN(CC(=O)O)CC1)C(=O)O)[C@@H](C)O [fluorine-18 labelled] — tissue uptake (gamma counting; BALB/c nude mice, female, subcutaneous tumour, liver; intravenous, 3.7 MBq, 2 h): 1.39 ± 0.12 %ID/g
N=C(N)NCCC[C@H](NC(=O)[C@H](CCCCN)NC(=O)[C@H](CCC(N)=O)NC(=O)CCOCCOCCOCCNC(=O)CN1CCN(CC(=O)O)CCN(CC(=O)O)CCN(CC(=O)O)CC1)C(=O)N[C@@H](CCCCN)C(=O)N[C@@H](CCCNC(=N)N)C(=O)N[C@@H](CCCCN)C(=O)N[C@@H](CCCCN)C(=O)N[C@@H](CO)C(=O)N[C@@H](CCCNC(=N)N)C(=O)N[C@@H](Cc1ccc(O)cc1)C(=O)N[C@@H](CCCCN)C(=O)N[C@@H](CO)C(=O)O [copper-64 labelled] — tissue uptake (male C57BL/6 mice, B16-F10 tumour, heart; intravenous, 60 min): 0.59 ± 0.04 %ID/g
N=C(N)NCCC[C@@H]1NC(=O)[C@H](CCCCNC(=O)CC[C@H](NC(=O)CCOCCOCCOCCOCCNC(=O)CN2CCN(CC(=O)O)CCN(CC(=O)O)CCN(CC(=O)O)CC2)C(=O)NCCCC[C@@H]2NC(=O)[C@@H](Cc3ccccc3)NC(=O)[C@H](CC(=O)O)NC(=O)CNC(=O)[C@H](CCCNC(=N)N)NC2=O)NC(=O)[C@@H](Cc2ccccc2)NC(=O)[C@H](CC(=O)O)NC(=O)CNC1=O [indium-111 labelled] — tissue uptake (female athymic nude mice, heart; intravenous, 3 µCi, 72 h, U-87 MG glioma xenograft): 0.14 ± 0.02 %ID/g
CSCC[C@H](NC(=O)[C@H](CC(=O)O)NC(=O)[C@H](CO)NC(=O)[C@H](Cc1c[nH]cn1)NC(=O)[C@H](Cc1c[nH]c2ccccc12)NC(=O)CN1CCN(CC(=O)O)CCN(CC(=O)O)CCN(CC(=O)O)CC1)C(=O)N[C@@H](CCC(=O)O)C(=O)N[C@@H](Cc1c[nH]c2ccccc12)C(=O)N[C@@H](Cc1c[nH]c2ccccc12)C(=O)N[C@@H](Cc1ccc(O)cc1)C(=O)N[C@@H](CC(C)C)C(=O)N[C@@H](CC(C)C)C(=O)NCC(=O)N[C@@H](CCCCNC(=O)COCCOCCNC(=O)CCN1C(=O)C=CC1=O)C(=O)O [copper-64 labelled] — tissue uptake (gamma counting; nude mice bearing HT-29 tumours, blood; intravenous, 0.74 MBq (0.02 nmol), 4 h): 3.53 %ID/g
CSCC[C@H](NC(=O)[C@H](CC(C)C)NC(=O)[C@H](Cc1c[nH]cn1)NC(=O)CNC(=O)[C@@H](NC(=O)[C@H](C)NC(=O)[C@H](Cc1c[nH]c2ccccc12)NC(=O)[C@H](CCC(N)=O)NC(=O)CCCCCCCNC(=O)CCC(=O)Nc1ccc(CNC23CNCCNCC(N)(CNCCNC2)CNCCNC3)cc1)C(C)C)C(N)=O [copper-64 labelled] — tissue uptake (female SCID mice, PC-3 xenograft, liver; intravenous, 0.6 MBq, 1 h): 9.5 %ID/g
N=C(N)NCCC[C@@H]1NC(=O)[C@H](CCCCNC(=O)CCOCCOCCOCCOCCNC(=O)CN2CCN(CC(=O)O)CCN(CC(=O)O)CCN(CC(=O)O)CC2)NC(=O)[C@@H](Cc2ccccc2)NC(=O)[C@H](CC(=O)O)NC(=O)CNC1=O [indium-111 labelled] — tissue uptake (female athymic nude mice, muscle; intravenous, 3 µCi, 1 h, U-87 MG glioma xenograft): 0.38 ± 0.05 %ID/g
CC(C)C[C@H](NC(=O)[C@H](Cc1ccc(O)cc1)NC(=O)[C@@H](CCCNC(=N)N)NC(=O)[C@@H](CO)NC(=O)[C@H](Cc1ccccc1)NC(=O)[C@H](CC1CCCCC1)NC(=O)[C@H](CC(=O)O)NC(=O)CCC(C(=O)O)N1CCCN2CCN(CCCN(CC(=O)O)CC2)CC1)C(=O)N[C@@H](Cc1c[nH]c2ccccc12)C(=O)N[C@@H](CO)C(=O)O (some centres unmarked) [copper-64 labelled] — tissue uptake (female NMRI nude mice, kidney; 22 h p.i.): 4.8 ± 0.7 %ID/g
N=C(N)NCCC[C@@H]1NC(=O)[C@H](CCCCNC(=O)CNC(=O)CNC(=O)CNC(=O)CC[C@H](NC(=O)CNC(=O)CNC(=O)CNC(=O)[C@H](CCCCNC(=O)c2ccc(NN)nc2)NC(=O)c2ccc(NN)nc2)C(=O)NCC(=O)NCC(=O)NCC(=O)NCCCC[C@@H]2NC(=O)[C@@H](Cc3ccccc3)NC(=O)[C@H](CC(=O)O)NC(=O)CNC(=O)[C@H](CCCNC(=N)N)NC2=O)NC(=O)[C@@H](Cc2ccccc2)NC(=O)[C@H](CC(=O)O)NC(=O)CNC1=O [technetium-99m labelled] — tissue uptake (female athymic nude mice, lungs; intravenous, 0.1 MBq, 1 h, U-87 MG glioma xenograft): 3.17 ± 0.5 %ID/g
N=C(N)NCCC[C@@H]1NC(=O)[C@H](CCCCNC(=O)CNC(=O)CNC(=O)CNC(=O)CC[C@H](NC(=O)CCOCCOCCOCCOCCNC(=O)CC[C@H](NC(=O)CN2CCN(CC(=O)O)CCN(CC(=O)O)CCN(CC(=O)O)CC2)C(=O)NCCOCCOCCOCCOCCC(=O)N[C@@H](CCC(=O)NCC(=O)NCC(=O)NCC(=O)NCCCC[C@@H]2NC(=O)[C@@H](Cc3ccccc3)NC(=O)[C@H](CC(=O)O)NC(=O)CNC(=O)[C@H](CCCNC(=N)N)NC2=O)C(=O)NCC(=O)NCC(=O)NCC(=O)NCCCC[C@@H]2NC(=O)[C@@H](Cc3ccccc3)NC(=O)[C@H](CC(=O)O)NC(=O)CNC(=O)[C@H](CCCNC(=N)N)NC2=O)C(=O)NCC(=O)NCC(=O)NCC(=O)NCCCC[C@@H]2NC(=O)[C@@H](Cc3ccccc3)NC(=O)[C@H](CC(=O)O)NC(=O)CNC(=O)[C@H](CCCNC(=N)N)NC2=O)NC(=O)[C@@H](Cc2ccccc2)NC(=O)[C@H](CC(=O)O)NC(=O)CNC1=O [indium-111 labelled] — tissue uptake (athymic nude mice, female, U-87 MG glioma xenograft, U-87 MG tumour; intravenous, 3 µCi, 72 h): 2.66 ± 0.81 %ID/g

Repeated from above:
N=C(N)NCCC[C@@H]1NC(=O)[C@H](CCCCNC(=O)CCOCCOCCOCCOCCNC(=O)CC[C@H](NC(=O)CCOCCOCCOCCOCCNC(=O)c2ccc(NN)nc2)C(=O)NCCOCCOCCOCCOCCC(=O)NCCCC[C@@H]2NC(=O)[C@@H](Cc3ccccc3)NC(=O)[C@H](CC(=O)O)NC(=O)CNC(=O)[C@H](CCCNC(=N)N)NC2=O)NC(=O)[C@@H](Cc2ccccc2)NC(=O)[C@H](CC(=O)O)NC(=O)CNC1=O [technetium-99m labelled] — tissue uptake (female athymic nude mice, U-87 MG glioma xenograft, intestine; intravenous, 2.5 µCi, 60 min): 5.25 ± 1.92 %ID/g
N=C(N)NCCC[C@@H]1NC(=O)[C@H](CCCCNC(=O)CCOCCOCCOCCOCCNC(=O)CC[C@H](NC(=O)CCOCCOCCOCCOCCNC(=O)CC[C@H](NC(=O)CN2CCN(CC(=O)O)CCN(CC(=O)O)CCN(CC(=O)O)CC2)C(=O)NCCOCCOCCOCCOCCC(=O)N[C@@H](CCC(=O)NCCOCCOCCOCCOCCC(=O)NCCCC[C@@H]2NC(=O)[C@@H](Cc3ccccc3)NC(=O)[C@H](CC(=O)O)NC(=O)CNC(=O)[C@H](CCCNC(=N)N)NC2=O)C(=O)NCCOCCOCCOCCOCCC(=O)NCCCC[C@@H]2NC(=O)[C@@H](Cc3ccccc3)NC(=O)[C@H](CC(=O)O)NC(=O)CNC(=O)[C@H](CCCNC(=N)N)NC2=O)C(=O)NCCOCCOCCOCCOCCC(=O)NCCCC[C@@H]2NC(=O)[C@@H](Cc3ccccc3)NC(=O)[C@H](CC(=O)O)NC(=O)CNC(=O)[C@H](CCCNC(=N)N)NC2=O)NC(=O)[C@@H](Cc2ccccc2)NC(=O)[C@H](CC(=O)O)NC(=O)CNC1=O [indium-111 labelled] — tissue uptake (athymic nude mice, female, U-87 MG glioma xenograft, spleen; intravenous, 3 µCi, 4 h): 2.07 ± 0.37 %ID/g
